Measured values of several laboratories.
Every numbered part comes from another study and shows a few of its results, in no order. Substitutions count along the parent as printed.

Study 1
Target: RNA binding protein fox-1 homolog 2, RRM domain, GST-SBP tag (RBFOX2, Homo sapiens, UniProt O43251-10, residues 100-194)
Technique: RNA Bind-n-Seq
Molecule type: RNA
Matrix: in vitro
Tested at: 365 nM
Setting: natural RNA segment, single round, ends assumed
Baseline: no-protein control
Reading: higher = stronger binding
Constant ends, left off below: GGGAGUUCUACAGUCCGACGAUC … UGGAAUUCUCGGGUGCCAA
Residues (chain): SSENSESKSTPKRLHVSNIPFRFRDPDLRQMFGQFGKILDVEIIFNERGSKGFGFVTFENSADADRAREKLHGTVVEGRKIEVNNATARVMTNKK
| Oligonucleotide | RBNS enrichment (R) |
| --- | --- |
| AGGUAAAGACAGGGUUUCCUUACUUAACGGAUUUGAGCGCUUCUGUUCUCCAAACACAAUGGAAUUUCUUGUUCAAGAGCAGCUUCCAGAGUUGAGCCAGCCCUCGCUGC | 0.374 |
| GCCAGCACAGUCCCCUCACCUCUGGCAGGGCUGCUACCUCCUCAGAGUUUCAGAAGCCCCCACAUGGGGGCUCUAGGAAUGCCGGCAUGCUGGUCUUUCCGACCUGGUGC | 0.346 |
| AGGGAUUGAUGAAUGGGAAGAGUUGAGUCAGACCAGUAAGCCCGUCCUGGGUUCCUUGAACAUGUUCCCAUGUAGGAGGUAAAACCAAUUCUGGAAGUGUCUAUGAACUU | 0.516 |
| GGGGGACCUCAGCCUCUAUUCGCAACUCAUAAUCCGUAGACUACAAGAUGAAAUCUCAAUAAAUUAUUUUUGAGUUUAUUAAAGAUUGACAUUUUAAGUACAACUUUUAA | 0.322 |
| AGUCAUAAGGAAAGAAUUACGUGUACUUCAUAUCCCUAUAAAUUGUAAAUGCUAAAAAUGUUAAAGAACUCGAAGUAUUUCUCUAAAAGGCUGUCAAGAGAAUCUAGGUC | 1.07 |
| GCCCCUGCCUCUUCCCUAGUGUCAGCCUACUCCAGGCUCCCAGCUGCCUUGAGAGGCCGCGGACAAAGAGCUUCUAAAACCAAGAGUCUCAGCGCUUGAGGAGUGCUGCC | 0.641 |
| AUUUCCUCGGGAUAUGAGAAGCCUCGAUAAACAUCUCUGCCGUUCCCCAUCCCUAUAUCAACACUCUGGCUUCCCUUUCUCCCAUAUCACACUCUGGCCCAAGGACCCCA | 0.984 |
| GCACCAGCACCUUAGAAACUAUUGGCAGAAGAGGGCACAUGAGCUGCGGGAGAGUGUAUACACUGAUCAGUACCUCCCUUGAGGCUGAGCUUCCUCGCAGACCCACAGAA | 1.19 |
| AGAAGUUGAAGCUCUUUAAGCCAUUUUAUUUAUUUUGUUUUUUACAGAAUUUGUGCUUUGGUUUGCCCUGCGCAGCCUUGGAGCAUCAUAAGCCUGGCUGGUGGGCAUAG | 0.38 |
| AAAUGUCAGCAUAUGUAGCAAGUUUUCUAAGAAUGUAACUUAAUUUGAAGCUCCUGAAAUUUUGAGCACUGCUCUAACAUUGUAGGAAGUUAGUGACAUUUUGCAAGUCU | 0.482 |
| CUGAUUUUCACUCUGAUUUUUAACGUUUCUUUAAAUAUUUAUAAUGUAGCUUCUUUCAAAAUAUUUUCAUGAAAAAUUACUUUUAUUAUACCAUUAUGUGCAUGUUAUUG | 14.4 |
| UUUAUACUUUGUUCCUCCUGCCCAACAACUGUCAGUACUGAGAUCUGAAAUUAAAAUGACUUGUUUGCUUGAGUGUGUUGAUUUAUAAACAGCAAUGGUGGUGGGGUACA | 1.99 |

Study 2
Target: Interferon regulatory factor 7, full length, phosphomimetic (IRF7, Homo sapiens, UniProt Q92985, residues 1-503, S471D/S472D/S475D/S476D/S477D/S483D/S484D/S487D)
Chain of UniProt Q92985 (whole entry, unmodified, looked up): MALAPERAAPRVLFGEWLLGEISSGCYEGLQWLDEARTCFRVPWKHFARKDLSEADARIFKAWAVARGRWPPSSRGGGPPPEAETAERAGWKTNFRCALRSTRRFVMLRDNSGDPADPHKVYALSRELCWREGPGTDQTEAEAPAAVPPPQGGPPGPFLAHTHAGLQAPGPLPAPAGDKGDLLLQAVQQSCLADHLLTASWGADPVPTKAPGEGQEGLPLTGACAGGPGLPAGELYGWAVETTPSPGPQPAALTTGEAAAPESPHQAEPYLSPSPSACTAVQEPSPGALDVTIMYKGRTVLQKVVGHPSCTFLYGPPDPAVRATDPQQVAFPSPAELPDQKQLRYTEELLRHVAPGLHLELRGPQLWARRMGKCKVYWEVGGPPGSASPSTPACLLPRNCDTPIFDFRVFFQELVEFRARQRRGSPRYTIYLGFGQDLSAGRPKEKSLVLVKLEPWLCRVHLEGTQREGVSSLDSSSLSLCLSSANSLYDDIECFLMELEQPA
Technique: protein-binding microarray
Molecule type: double-stranded DNA, one strand shown
Matrix: in vitro
Tested at: 2200 nM top
Setting: 60-bp whole probe
Together with: salmon DNA 0.4 mg/ml
Baseline: random background probes
Reading: higher = stronger binding
Constant ends, left off below: GCCTAGCAC … GTCTTGATTCGCTTGACGCTGCTG
| Oligonucleotide | fitted relative affinity |
| --- | --- |
| TTCGGACTGGGGTTTCGGTTAGTGCTA | 2.59 z-score |
| TCAACAATGATGTTTTGAACTGTGCTA | 0.00334 z-score |
| GACGAGCTGAGACTGGAGACGTGCTAG | -0.65 z-score |
| GACGGTATCGGGTATCAGGACGTGCTA | 0.199 z-score |
| TTAGGACTGGGGACTGGGTAAGTGCTA | -1.04 z-score |
| TCACCTTCTACTCTCCTACTGTGCTAG | 2.47 z-score |
| TTCGGTATCGGGTATCGGTTAGTGCTA | 1.13 z-score |
| TCAGGTCTCTAACTCAAACTGTGCTAG | 0.367 z-score |
| TTAGGAATCCTTTTCCTTTAGTGCTAG | 0.88 z-score |
| GACGGTTTCGACTTACGGGACGTGCTA | 8.02 z-score |
| TTAAGACTGGGGTATCGGTTAGTGCTA | -0.206 z-score |
| GATGGTATCGACTTTCGGGACGTGCTA | 3.41 z-score |
| TTAGATCTCAGTTTCGATTTGTGCTAG | 11.5 z-score |
| TTAGGTTTCCACACTGGGTTAGTGCTA | 0.966 z-score |
| TTCCCTTTCTCAACCTCCAGGTGCTAG | 3.92 z-score |
| GACGGTATCCTTATCCGGACGTGCTAG | 0.735 z-score |
| TTAGGTCTCCTTCCCCTTTAGTGCTAG | 1.85 z-score |
| GACGGTCTCGTTTTCCTGACGTGCTAG | 2.49 z-score |
| GACGGTATCCTTTTCTTGACGTGCTAG | 1.33 z-score |
| CTCGCTATGTTGTCCAGGCTGGTGCTA | 0.645 z-score |
| TCAGTCATCGATTTCTTACTGTGCTAG | 1.27 z-score |
| GACGAACTGAGTTTCGAGATGTGCTAG | 2.83 z-score |
| TTAGATATCGGGACTGCATTAGTGCTA | -0.165 z-score |
| TCATTTTTGCTTTCCTTACTGTGCTAG | 5.8 z-score |
| TTCGGTTCCGGTTTCGGTTAGTGCTAG | 9.23 z-score |

Study 3
Target: CCND2, cyclin fold, Cln2 fusion (human)
Technique: yeast growth competition, sequencing
Matrix: yeast
Setting: weak parent motif
Baseline: not given
Reading: higher = stronger binding
Starting sequence: E2F3 docking peptide (human); PPAKRRLELGESG; partner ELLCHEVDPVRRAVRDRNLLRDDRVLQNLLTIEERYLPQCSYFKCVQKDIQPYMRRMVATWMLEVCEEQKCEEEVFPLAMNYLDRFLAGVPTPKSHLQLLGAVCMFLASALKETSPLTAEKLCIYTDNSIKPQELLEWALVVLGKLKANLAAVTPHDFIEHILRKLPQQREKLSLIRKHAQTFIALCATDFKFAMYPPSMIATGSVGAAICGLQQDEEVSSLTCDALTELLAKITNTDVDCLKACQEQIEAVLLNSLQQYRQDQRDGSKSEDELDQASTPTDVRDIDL
| Change | normalised enrichment score |
| --- | --- |
| PPAKRRLELGESA [G13A] | 0.131 |
| PPAKRRLELGASG [E11A] | 0.362 |
| APAKRRLELGESG [P1A] | 0.22 |
| PAAKRRLELGESG [P2A] | 0.075 |
| PPAKRRLELGEAG [S12A] | 0.384 |
| PPAKRRLEFGESG [L9F] | 1.12 |
| PPAARRLELGESG [K4A] | 0.218 |

Study 4
Target: ABI1, truncated, D143A, DHFR fusion (Arabidopsis thaliana)
Technique: DHFR PCA, deep sequencing
Matrix: yeast
Setting: methotrexate growth selection, single substitutions
Together with: (+)-ABA 0.11 µM
Baseline: wild-type fitted maximum
Reading: higher = stronger binding
Starting sequence: PYL1, truncated, DHFR fusion (Arabidopsis thaliana); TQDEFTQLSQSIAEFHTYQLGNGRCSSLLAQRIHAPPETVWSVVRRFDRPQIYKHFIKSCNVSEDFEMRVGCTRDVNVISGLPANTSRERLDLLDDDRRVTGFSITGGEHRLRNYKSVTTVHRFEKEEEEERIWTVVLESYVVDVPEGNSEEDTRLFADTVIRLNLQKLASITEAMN
| Change | relative binding score [%] |
| --- | --- |
| E130I | 15.1 |
| R32E | 31.1 |
| V76F | -0.61 |
| I105E | -9.65 |
| S11Q | 34.9 |
| E4P | 12.2 |
| E129G | 63.3 |
| P83G | 57.3 |
| V76P | -1.19 |
| N114Y | 3.91 |
| E38V | -1.47 |
| Q7I | 27.8 |
| F47P | -3.68 |
| A158Y | 22.2 |
| P36T | 18.4 |
| D96W | -7 |
| K58H | 13.1 |
| T119F | -6.24 |
| T39A | 25.1 |

Other studies, line by line
| Substance | target | test | system | setting | scale | measurement | value |
| --- | --- | --- | --- | --- | --- | --- | --- |
| PhoQ, residues 284 288 289 292 302 303 TYGVAM | PhoP, residues 12 14 15 18 19 VQGLL (Escherichia coli, UniProt P23836) | Sort-seq, refers to: YFP reporter | E. coli | PhoQ-PhoP variant library, together with: 10 µM Mg2+ | baseline: high Mg2+ state, higher = stronger signaling | fold induction | 18.9 |

Repeated from above (study 1):
| Oligonucleotide | RBNS enrichment (R) |
| --- | --- |
| AGAAGUUGAAGCUCUUUAAGCCAUUUUAUUUAUUUUGUUUUUUACAGAAUUUGUGCUUUGGUUUGCCCUGCGCAGCCUUGGAGCAUCAUAAGCCUGGCUGGUGGGCAUAG | 0.38 |
| AAAUGUCAGCAUAUGUAGCAAGUUUUCUAAGAAUGUAACUUAAUUUGAAGCUCCUGAAAUUUUGAGCACUGCUCUAACAUUGUAGGAAGUUAGUGACAUUUUGCAAGUCU | 0.482 |
| CUGAUUUUCACUCUGAUUUUUAACGUUUCUUUAAAUAUUUAUAAUGUAGCUUCUUUCAAAAUAUUUUCAUGAAAAAUUACUUUUAUUAUACCAUUAUGUGCAUGUUAUUG | 14.4 |
| UUUAUACUUUGUUCCUCCUGCCCAACAACUGUCAGUACUGAGAUCUGAAAUUAAAAUGACUUGUUUGCUUGAGUGUGUUGAUUUAUAAACAGCAAUGGUGGUGGGGUACA | 1.99 |
